Published values pooled from the literature.
Each line is one published result; not all experiments were run side by side.
Cell line: HT-1080

`COc1ccc(/N=N/C(=S)N2CCCC2)cc1` has an IC50 of > 50 µM (cell growth or viability, resazurin; 48 h).
The EC50 of `CC(C)C[C@@H](/C=C/[C@H](Cc1ccccc1)C(=O)N1CCC[C@H]1C(=O)N[C@H](C(=O)N[C@@H](CCCNC(=O)OCc1ccccc1)C(=O)NC1CC(C)(C)N([O])C(C)(C)C1)C(C)C)NC(=O)OCC[S+]([O-])CC1(C)COC1` (stereo partly shown) is reported as 3.48 µM (protection from ferroptosis, PrestoBlue; 24 h, with: erastin 10 µM).
The IC50 of `CC/C(=C(\c1ccccc1)c1ccc(OCCN(C)CCCCC(=O)NCCc2c[nH]c3ccc(OC)cc23)cc1)c1ccccc1` is reported as 6.9 µM (cell survival, MTT; day 9, dosed days 2, 4, 7).
`CC(C)C[C@@H]1NC(=O)[C@H](CC(C)C)NC(=O)[C@H](Cc2ccccc2)NC(=O)[C@@H]2CSSC[C@@H](C(=O)O)NC(=O)[C@H](CSSC[C@H](N)C(=O)N3CCC[C@H]3C(=O)N2)NC(=O)CNC1=O`: cell adhesion “no effect” (concentration not given, with: fibronectin or fibrinogen).
`CC/C(=C(\c1ccccc1)c1ccc(OCCN(C)CCCCCC(=O)NCCc2c[nH]c3ccc(OC)cc23)cc1)c1ccccc1` gave an IC50 of 14.6 µM (cell survival, MTT; day 9, dosed days 2, 4, 7).
With `CC(C)C[C@@H](/C=C/CC(=O)N1CCC[C@H]1C(=O)N[C@H](C(=O)N[C@@H](CCCNC(=O)OCc1ccccc1)C(=O)NC1CC(C)(C)N([O])C(C)(C)C1)C(C)C)NC(=O)OCC[S+]([O-])CC1(C)COC1` (stereo partly shown) the EC50 was > 10 µM (protection from ferroptosis, PrestoBlue; 24 h, with: erastin 10 µM).
`Cc1cc(C)nc(NC(=S)N2CCN(Cc3ccc(C(F)(F)F)cc3)CC2)c1` has an EC50 of 14 µM (cell viability, CellTiter-Glo; 4 days).
For `COC(=O)C1CN1S(=O)(=O)c1ccc2c(C=O)c(N(C)C)ccc2c1` (stereo not shown), the IC50 was 7.9 µM (cell growth or viability, MTT; 48 h).
The IC50 of `COc1ccc(/N=N/C(=S)N2CCOCC2)cc1` is reported as > 50 µM (cell growth or viability, resazurin; 48 h).
With `CCNC(=O)Nc1ccc(S(=O)(=O)Oc2ccccc2CC)cc1` the IC50 was 0.37 µM (cell growth or viability, SRB; 48 h).

Repeated from above:
`CC/C(=C(\c1ccccc1)c1ccc(OCCN(C)CCCCCC(=O)NCCc2c[nH]c3ccc(OC)cc23)cc1)c1ccccc1` gave an IC50 of 14.6 µM (cell survival, MTT; day 9, dosed days 2, 4, 7).
For `COC(=O)C1CN1S(=O)(=O)c1ccc2c(C=O)c(N(C)C)ccc2c1` (stereo not shown), the IC50 was 7.9 µM (cell growth or viability, MTT; 48 h).
